Experimental data of several laboratories.
Lines come from different studies, so protocols differ. ± marks the error that the study gave.
B1: HDAC2 1-322 (Homo sapiens, UniProt Q92769); sequence looked up; chain MAYSQGGGKKKVCYYYDGDIGNYYYGQGHPMKPHRIRMTHNLLLNYGLYRKMEIYRPHKATAEEMTKYHSDEYIKFLRSIRPDNMSEYSKQMQRFNVGEDCPVFDGLFEFCQLSTGGSVAGAVKLNRQQTDMAVNWAGGLHHAKKSEASGFCYVNDIVLAILELLKYHQRVLYIDIDIHHGDGVEEAFYTTDRVMTVSFHKYGEYFPGTGDLRDIGAGKGKYYAVNFPMRDGIDDESYGQIFKPIISKVMEMYQPSAVVLQCGADSLSGDRLGCFNLTVKGHAKCVEVVKTFNLPLLMLGGGGYTIRNVARCWTYETAVALD
B2: RAD18 267-402 (Homo sapiens, UniProt Q9NS91); sequence looked up; chain IQGNKQQLIKRHQEFVHMYNAQCDALHPKSAAEIVREIENIEKTRMRLEASKLNESVMVFTKDQTEKEIDEIHSKYRKKHKSEFQLLVDQARKGYKKIAGMSQKTVTITKEDESTEKLSSVCMGQEDNMTSVTNHF
B3: mdfA (Bacillus subtilis, UniProt O31597); chain MLFLHDVWVNWFEGEENGYNVCHFHEWRKEDTVELLDQVPLLRVPSVLFHYIENDLSELPKGLLEDVHQKSYIRKNHERTKLEYCFVVTDGIGILAVDTIGYTIPVRKSRLIPRQEQLVYEMVKDVEPETYEFEPKKLESSKEYHILSLAPEHVRGLTRKERQIKQLMFMALDQLKGLKNRAEIGYWYTEWNPHMYEQIKRMSFEEIWDMLYNETIEGWSDKHLAFCENLIKGQPFFEKLWEMENESKVN
B4: AEBP2 407-478 (Homo sapiens, UniProt Q6ZN18); sequence looked up; chain RHRAICFNLSAHIESLGKGHSVVFHSTVIAKRKEDSGKIKLLLHWMPEDILPDVWVNESERHQLKTKVVHLS
B5: Notch1 221-526 (Mus musculus, UniProt Q01705); sequence looked up; chain PCSPSPCQNGGTCRPTGDTTHECACLPGFAGQNCEENVDDCPGNNCKNGGACVDGVNTYNCRCPPEWTGQYCTEDVDECQLMPNACQNGGTCHNTHGGYNCVCVNGWTGEDCSENIDDCASAACFQGATCHDRVASFYCECPHGRTGLLCHLNDACISNPCNEGSNCDTNPVNGKAICTCPSGYTGPACSQDVDECALGANPCEHAGKCLNTLGSFECQCLQGYTGPRCEIDVNECISNPCQNDATCLDQIGEFQCICMPGYEGVYCEINTDECASSPCLHNGHCMDKINEFQCQCPKGFNGHLCQ
B6: Igf2 E-peptide 92-180 S95C (Mus musculus, UniProt P09535); sequence looked up; chain RDVCTSQAVLPDDFPRYPVGKFFQYDTWRQSAGRLRRGLPALLRARRGRMLAKELKEFREAKRHRPLIVLPPKDPAHGGASSEMSSNHQ
B7: mrc1 781-851 (Schizosaccharomyces pombe, UniProt Q9P7T4); sequence looked up; chain GALRKRNRNGFAALDDSDDEDYSNLRREKLKELRRQKLLEDGNLNVLEGDKRKAFLATVEDSLVSSKDNLT
B8: EFR3A 721-791 (Homo sapiens, UniProt Q14156); chain SNTEEITFEALKKAIDTSGMEEQEKEKRRLVIEKFQKAPFEEIAAQCESKANLLHDRLAQILELTIRPPPS
B9: RAD1 (Homo sapiens, UniProt O60671); sequence looked up; chain MPLLTQQIQDEDDQYSLVASLDNVRNLSTILKAIHFREHATCFATKNGIKVTVENAKCVQANAFIQAGIFQEFKVQEESVTFRINLTVLLDCLSIFGSSPMPGTLTALRMCYQGYGYPLMLFLEEGGVVTVCKINTQEPEETLDFDFCSTNVINKIILQSEGLREAFSELDMTSEVLQITMSPDKPYFRLSTFGNAGSSHLDYPKDSDLMEAFHCNQTQVNRYKISLLKPSTKALVLSCKVSIRTDNRGFLSLQYMIRNEDGQICFVEYYCCPDEEVPESES
B10: POL30 1-258 (Saccharomyces cerevisiae, UniProt P15873); chain MLEAKFEEASLFKRIIDGFKDCVQLVNFQCKEDGIIAQAVDDSRVLLVSLEIGVEAFQEYRCDHPVTLGMDLTSLSKILRCGNNTDTLTLIADNTPDSIILLFEDTKKDRIAEYSLKLMDIDADFLKIEELQYDSTLSLPSSEFSKIVRDLSQLSDSINIMITKETIKFVADGDIGSGSVIIKPFVDMEHPETSIKLEMDQPVDLTFGAKYLLDIIKGSSLSDRVGIRLSSEAPALFQFDLKSGFLQFFLAPKFNDEE
UniProt O95251, sequence (whole entry, looked up): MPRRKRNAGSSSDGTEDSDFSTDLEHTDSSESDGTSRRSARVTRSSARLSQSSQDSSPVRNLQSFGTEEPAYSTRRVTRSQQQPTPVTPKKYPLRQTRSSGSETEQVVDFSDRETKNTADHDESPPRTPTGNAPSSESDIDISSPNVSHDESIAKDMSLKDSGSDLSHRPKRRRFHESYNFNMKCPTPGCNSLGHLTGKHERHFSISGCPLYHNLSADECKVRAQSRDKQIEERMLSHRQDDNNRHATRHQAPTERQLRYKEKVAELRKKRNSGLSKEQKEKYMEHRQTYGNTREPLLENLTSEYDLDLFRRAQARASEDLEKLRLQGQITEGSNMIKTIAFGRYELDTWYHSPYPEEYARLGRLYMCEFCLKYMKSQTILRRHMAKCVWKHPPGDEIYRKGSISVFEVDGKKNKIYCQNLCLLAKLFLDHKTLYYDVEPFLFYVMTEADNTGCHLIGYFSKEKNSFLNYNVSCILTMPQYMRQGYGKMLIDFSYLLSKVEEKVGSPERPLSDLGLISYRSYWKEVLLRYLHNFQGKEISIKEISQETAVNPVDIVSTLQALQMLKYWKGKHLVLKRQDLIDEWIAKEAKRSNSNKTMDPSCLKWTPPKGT
UniProt P18858, sequence (whole entry, unmodified, looked up): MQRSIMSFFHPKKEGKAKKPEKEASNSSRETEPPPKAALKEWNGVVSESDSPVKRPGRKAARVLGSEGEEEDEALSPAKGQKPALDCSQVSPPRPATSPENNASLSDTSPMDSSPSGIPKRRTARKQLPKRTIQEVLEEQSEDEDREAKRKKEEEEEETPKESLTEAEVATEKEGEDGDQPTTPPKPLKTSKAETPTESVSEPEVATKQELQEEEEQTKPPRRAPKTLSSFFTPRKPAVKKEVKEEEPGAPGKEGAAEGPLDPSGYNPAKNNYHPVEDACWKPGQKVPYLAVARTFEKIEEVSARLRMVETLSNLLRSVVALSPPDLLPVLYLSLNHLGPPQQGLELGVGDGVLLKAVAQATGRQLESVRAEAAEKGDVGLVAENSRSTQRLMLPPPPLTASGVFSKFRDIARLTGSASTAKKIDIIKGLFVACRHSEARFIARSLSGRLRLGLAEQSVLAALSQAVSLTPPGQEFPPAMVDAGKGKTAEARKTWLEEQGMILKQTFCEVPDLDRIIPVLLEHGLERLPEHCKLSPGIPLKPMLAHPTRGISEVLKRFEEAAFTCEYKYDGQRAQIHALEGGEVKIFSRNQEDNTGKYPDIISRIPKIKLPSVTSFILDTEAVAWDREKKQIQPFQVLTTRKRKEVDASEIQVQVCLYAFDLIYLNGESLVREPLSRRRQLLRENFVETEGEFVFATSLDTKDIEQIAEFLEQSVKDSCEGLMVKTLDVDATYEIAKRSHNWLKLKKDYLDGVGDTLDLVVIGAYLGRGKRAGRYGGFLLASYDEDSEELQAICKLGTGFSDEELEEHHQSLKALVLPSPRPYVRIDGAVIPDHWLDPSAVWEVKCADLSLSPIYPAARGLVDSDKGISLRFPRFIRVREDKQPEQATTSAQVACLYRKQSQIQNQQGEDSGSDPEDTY
UniProt P84090, sequence (whole entry, unmodified, looked up): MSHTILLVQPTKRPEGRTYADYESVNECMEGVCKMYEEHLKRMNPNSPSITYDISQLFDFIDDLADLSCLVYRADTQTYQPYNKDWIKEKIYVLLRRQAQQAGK
UniProt P40339, sequence (whole entry, looked up): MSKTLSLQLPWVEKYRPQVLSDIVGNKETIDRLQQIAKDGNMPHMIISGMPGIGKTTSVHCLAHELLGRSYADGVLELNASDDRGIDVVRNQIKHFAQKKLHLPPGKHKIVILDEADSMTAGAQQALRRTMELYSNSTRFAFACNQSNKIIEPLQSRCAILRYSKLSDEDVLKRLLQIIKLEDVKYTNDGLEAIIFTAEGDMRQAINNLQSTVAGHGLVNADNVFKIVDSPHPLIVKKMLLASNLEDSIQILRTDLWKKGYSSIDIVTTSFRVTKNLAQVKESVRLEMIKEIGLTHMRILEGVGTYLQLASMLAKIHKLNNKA
UniProt P20029, sequence (whole entry, unmodified, looked up): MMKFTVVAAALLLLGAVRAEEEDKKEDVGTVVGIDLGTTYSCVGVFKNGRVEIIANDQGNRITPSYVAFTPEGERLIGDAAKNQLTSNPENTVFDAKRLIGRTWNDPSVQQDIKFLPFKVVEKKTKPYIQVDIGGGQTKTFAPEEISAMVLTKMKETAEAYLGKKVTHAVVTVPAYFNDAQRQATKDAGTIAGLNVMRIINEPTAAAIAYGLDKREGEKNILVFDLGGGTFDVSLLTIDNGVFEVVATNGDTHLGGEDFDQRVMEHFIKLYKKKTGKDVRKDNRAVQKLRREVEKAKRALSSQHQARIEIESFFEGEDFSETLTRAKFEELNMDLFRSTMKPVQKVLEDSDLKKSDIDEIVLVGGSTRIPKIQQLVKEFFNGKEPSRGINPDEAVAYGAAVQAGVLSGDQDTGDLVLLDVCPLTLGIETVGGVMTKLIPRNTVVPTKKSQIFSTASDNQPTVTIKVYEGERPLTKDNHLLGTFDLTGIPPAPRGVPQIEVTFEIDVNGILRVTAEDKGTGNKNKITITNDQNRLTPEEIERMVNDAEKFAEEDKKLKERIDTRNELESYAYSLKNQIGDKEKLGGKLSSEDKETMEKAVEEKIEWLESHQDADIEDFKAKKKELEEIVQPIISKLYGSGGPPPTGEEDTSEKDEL
UniProt Q9NR61, sequence (whole entry, unmodified, looked up): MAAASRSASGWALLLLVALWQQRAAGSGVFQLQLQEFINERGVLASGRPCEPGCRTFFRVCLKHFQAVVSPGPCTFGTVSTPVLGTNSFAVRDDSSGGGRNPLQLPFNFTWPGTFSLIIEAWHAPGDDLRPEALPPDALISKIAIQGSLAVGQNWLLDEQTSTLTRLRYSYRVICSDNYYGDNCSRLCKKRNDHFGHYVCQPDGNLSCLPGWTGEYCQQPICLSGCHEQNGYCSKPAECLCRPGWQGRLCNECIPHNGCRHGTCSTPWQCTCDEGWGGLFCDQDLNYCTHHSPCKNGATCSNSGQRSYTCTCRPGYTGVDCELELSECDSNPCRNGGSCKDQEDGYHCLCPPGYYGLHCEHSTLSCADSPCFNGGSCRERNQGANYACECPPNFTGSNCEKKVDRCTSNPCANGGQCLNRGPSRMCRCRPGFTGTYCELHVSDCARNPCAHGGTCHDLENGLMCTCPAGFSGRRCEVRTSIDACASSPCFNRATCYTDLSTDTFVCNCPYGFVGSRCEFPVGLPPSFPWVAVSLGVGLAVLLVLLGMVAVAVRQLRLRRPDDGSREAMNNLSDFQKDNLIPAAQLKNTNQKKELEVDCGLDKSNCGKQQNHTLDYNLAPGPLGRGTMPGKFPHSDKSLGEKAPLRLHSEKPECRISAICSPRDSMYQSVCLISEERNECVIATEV

B1 (HDAC2 1-322)  binding (KAT7 (Homo sapiens, UniProt O95251); pull-down): binds
NGVGGSWGVFSSGESPAIVPD (TET3 1450-1470 (Homo sapiens, UniProt O43151); sequence looked up)  binding (KMT2D 1503-1562 (Homo sapiens, UniProt O14686); NMR): binds
B2 (RAD18 267-402)  binding (MAGEA4 101-312 E225A (Homo sapiens, UniProt P43358); TR-FRET): binds
B3 (mdfA)  binding (clpC E280A/E618A (Bacillus subtilis, UniProt P37571); SEC; together with: ATP): binds
B4 (AEBP2 407-478)  binding (SUZ12/RBBP4 SUZ12 76-545 (Homo sapiens); pull-down): binds
B5 (Notch1 221-526)  binding (DLL4 27-400 G28S/F107L/I143F/H194Y/L206P (Homo sapiens, UniProt Q9NR61); SPR): binds
B6 (Igf2 E-peptide 92-180 S95C)  binding (HSPA5 D27C, FITC label (UniProt P20029); fluorescence polarisation; together with: ATP): binds
PRTARHAPAVRKFSPDLKLLKDVKISVSFTE (DGCR8(96-126), SUMO-tagged)  Kd (Enhancer of rudimentary homolog (Homo sapiens, UniProt P84090, L64A); binding, isothermal titration calorimetry; peptide; 293 K, together with: DGCR8 peptide, SUMO-tagged): 34.2 ± 14 µM
FGB (Homo sapiens, UniProt P02675)  cross-linked residues (CCDC30 (Homo sapiens, UniProt Q5VVM6); cross-linking MS; together with: DSSO): K353 to K346
B7 (mrc1 781-851)  binding (MCM2-7 complex/Mcm2-Flag MCM2-7 complex (Schizosaccharomyces pombe); pull-down): binds
colistin  MIC (Pseudomonas aeruginosa; clinical isolate RKI 25/14): ≤ 1 µg/mL
FGA (Homo sapiens, UniProt P02671)  cross-linked residues (SLC27A1 (Homo sapiens, UniProt Q6PCB7); cross-linking MS; together with: DSSO): K243 to K49
11-deoxycorticosterone  Kd (CYP11B2 (human); substrate binding, stopped-flow global kinetic fitting; purified enzyme; model, linear, 4 state, CS-IF, together with: 40-fold excess adrenodoxin): 3.46 µM
B8 (EFR3A 721-791)  binding (PI4KA/TTC7B/FAM126A FAM126A (Homo sapiens); SEC): binds
B9 (RAD1)  binding (LIG1 233-919 (Homo sapiens, UniProt P18858); pull-down; 1 hr, 4 °C): binds
ARTKQTARKSTGGKAY (histone H3 residues 1-15; K9me3)  binding (ATRX 1-321 H189N (Homo sapiens, UniProt P46100); ITC; peptide; 25 °C): binds
B10 (POL30 1-258)  binding (RFC4 (Saccharomyces cerevisiae, UniProt P40339); cryo-EM): binds

For quick reference, copied from above:
B2 (RAD18 267-402)  binding (MAGEA4 101-312 E225A (Homo sapiens, UniProt P43358); TR-FRET): binds
